Experimental data collected from several papers.
Numbered parts are unrelated; each lists some results of a single study.
UniProt Q6P2M8, sequence (whole entry, looked up): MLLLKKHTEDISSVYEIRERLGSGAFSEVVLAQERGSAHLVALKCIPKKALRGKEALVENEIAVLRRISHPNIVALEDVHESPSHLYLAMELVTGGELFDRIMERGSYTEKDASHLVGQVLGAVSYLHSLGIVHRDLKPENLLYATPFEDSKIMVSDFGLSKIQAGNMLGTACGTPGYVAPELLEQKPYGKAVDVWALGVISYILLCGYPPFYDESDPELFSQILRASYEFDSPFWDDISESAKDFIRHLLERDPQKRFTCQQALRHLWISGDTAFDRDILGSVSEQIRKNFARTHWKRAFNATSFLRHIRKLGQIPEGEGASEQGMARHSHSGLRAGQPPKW
UniProt Q86Y07, sequence (whole entry, looked up): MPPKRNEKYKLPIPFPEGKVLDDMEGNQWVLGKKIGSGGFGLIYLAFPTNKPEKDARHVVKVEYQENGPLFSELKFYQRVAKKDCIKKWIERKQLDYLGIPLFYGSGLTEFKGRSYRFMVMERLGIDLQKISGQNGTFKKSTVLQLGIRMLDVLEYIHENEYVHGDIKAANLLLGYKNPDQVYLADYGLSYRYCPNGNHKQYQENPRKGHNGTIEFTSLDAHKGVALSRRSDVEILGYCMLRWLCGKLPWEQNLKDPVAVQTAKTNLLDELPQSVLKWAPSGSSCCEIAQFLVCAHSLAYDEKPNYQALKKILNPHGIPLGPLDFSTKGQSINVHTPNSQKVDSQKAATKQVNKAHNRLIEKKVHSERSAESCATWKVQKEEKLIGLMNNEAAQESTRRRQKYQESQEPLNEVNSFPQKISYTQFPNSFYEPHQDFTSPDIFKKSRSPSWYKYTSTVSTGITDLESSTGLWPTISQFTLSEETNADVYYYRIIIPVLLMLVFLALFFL
UniProt Q16832, sequence (whole entry, looked up): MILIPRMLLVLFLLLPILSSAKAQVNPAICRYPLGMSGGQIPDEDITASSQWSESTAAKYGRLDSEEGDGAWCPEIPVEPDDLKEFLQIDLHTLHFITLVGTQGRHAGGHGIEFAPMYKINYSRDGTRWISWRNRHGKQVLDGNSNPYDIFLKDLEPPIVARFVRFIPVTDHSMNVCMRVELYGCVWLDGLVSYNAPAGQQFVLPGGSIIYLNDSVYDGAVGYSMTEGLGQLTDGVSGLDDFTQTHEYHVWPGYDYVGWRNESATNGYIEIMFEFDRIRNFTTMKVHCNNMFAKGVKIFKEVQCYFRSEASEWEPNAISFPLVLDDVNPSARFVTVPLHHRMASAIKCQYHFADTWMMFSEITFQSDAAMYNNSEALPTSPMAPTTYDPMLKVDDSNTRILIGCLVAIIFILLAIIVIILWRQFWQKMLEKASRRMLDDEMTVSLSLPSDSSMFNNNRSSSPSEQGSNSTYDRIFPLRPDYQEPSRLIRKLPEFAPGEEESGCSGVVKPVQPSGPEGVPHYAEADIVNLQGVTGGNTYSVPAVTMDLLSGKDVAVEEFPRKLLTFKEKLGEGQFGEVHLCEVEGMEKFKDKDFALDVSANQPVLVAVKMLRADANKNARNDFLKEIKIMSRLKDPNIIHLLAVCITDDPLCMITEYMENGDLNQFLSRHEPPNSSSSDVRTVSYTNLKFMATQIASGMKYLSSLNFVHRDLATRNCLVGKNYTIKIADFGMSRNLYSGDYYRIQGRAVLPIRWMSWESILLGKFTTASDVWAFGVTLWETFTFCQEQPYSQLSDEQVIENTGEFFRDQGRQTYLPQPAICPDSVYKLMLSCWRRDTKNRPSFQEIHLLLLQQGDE
UniProt Q8N568, sequence (whole entry, looked up): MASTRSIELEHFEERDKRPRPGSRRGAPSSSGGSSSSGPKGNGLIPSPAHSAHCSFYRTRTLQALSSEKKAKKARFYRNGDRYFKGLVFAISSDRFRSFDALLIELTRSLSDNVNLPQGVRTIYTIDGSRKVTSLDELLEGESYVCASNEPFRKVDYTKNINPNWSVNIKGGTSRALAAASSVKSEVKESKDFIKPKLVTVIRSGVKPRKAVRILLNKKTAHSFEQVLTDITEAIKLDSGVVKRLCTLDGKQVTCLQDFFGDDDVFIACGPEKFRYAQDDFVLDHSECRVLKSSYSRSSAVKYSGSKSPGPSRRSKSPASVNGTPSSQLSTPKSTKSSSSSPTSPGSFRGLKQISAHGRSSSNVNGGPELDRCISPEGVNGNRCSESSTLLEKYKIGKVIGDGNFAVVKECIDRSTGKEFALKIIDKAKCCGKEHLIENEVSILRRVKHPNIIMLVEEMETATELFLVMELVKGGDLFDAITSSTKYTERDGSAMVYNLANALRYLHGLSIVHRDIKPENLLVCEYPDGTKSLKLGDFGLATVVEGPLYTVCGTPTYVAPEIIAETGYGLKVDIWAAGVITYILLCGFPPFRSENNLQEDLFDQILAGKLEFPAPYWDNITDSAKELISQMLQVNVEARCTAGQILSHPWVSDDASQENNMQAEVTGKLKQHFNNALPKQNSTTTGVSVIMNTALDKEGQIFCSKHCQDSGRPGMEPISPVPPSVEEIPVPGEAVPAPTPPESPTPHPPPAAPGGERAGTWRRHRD
UniProt Q8N4C8, sequence (whole entry, looked up): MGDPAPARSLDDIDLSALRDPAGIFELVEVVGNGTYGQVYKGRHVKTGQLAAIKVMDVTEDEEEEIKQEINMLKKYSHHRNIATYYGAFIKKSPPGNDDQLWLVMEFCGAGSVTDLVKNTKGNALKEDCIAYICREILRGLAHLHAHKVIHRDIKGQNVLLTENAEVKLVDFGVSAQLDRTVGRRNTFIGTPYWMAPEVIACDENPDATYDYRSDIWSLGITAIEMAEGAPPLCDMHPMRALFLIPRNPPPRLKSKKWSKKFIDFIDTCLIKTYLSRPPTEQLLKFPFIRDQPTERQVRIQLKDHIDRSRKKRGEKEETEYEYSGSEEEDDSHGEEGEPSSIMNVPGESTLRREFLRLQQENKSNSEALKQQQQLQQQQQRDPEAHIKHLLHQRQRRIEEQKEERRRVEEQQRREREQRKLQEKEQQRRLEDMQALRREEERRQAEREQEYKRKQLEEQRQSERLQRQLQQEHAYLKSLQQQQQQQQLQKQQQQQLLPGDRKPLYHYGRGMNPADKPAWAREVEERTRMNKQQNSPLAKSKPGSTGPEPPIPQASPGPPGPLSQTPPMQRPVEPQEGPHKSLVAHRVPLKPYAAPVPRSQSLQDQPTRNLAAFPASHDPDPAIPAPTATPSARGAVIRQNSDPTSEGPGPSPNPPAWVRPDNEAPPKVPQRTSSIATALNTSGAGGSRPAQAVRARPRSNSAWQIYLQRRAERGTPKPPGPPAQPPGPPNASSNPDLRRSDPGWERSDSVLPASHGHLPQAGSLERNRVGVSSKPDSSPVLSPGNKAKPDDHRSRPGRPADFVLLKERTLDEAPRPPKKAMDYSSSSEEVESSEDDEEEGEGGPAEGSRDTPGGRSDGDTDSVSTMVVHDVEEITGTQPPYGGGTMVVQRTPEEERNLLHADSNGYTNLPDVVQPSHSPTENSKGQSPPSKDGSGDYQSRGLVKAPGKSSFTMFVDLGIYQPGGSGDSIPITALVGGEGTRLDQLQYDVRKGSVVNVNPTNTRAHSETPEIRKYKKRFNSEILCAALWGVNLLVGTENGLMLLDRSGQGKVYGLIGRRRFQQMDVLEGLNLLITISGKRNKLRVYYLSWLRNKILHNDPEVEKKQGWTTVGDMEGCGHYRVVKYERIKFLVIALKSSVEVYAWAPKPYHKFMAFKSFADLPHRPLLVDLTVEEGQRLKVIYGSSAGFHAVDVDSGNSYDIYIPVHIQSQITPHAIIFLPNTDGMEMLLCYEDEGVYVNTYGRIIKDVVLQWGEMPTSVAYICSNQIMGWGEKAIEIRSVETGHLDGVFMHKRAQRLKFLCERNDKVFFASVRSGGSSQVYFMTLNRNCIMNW
UniProt Q16566, sequence (whole entry, looked up): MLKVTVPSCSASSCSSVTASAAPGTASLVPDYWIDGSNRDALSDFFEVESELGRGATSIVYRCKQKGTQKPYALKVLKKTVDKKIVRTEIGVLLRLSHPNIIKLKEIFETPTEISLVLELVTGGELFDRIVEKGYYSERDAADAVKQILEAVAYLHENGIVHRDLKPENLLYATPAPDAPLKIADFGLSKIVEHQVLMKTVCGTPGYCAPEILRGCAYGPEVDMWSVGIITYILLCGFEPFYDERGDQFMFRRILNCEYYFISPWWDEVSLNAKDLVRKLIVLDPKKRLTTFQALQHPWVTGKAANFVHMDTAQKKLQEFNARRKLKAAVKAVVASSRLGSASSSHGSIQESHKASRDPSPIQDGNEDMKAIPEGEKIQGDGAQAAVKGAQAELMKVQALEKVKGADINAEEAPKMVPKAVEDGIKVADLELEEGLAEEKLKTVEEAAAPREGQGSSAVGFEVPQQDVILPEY
UniProt Q13237, sequence (whole entry, looked up): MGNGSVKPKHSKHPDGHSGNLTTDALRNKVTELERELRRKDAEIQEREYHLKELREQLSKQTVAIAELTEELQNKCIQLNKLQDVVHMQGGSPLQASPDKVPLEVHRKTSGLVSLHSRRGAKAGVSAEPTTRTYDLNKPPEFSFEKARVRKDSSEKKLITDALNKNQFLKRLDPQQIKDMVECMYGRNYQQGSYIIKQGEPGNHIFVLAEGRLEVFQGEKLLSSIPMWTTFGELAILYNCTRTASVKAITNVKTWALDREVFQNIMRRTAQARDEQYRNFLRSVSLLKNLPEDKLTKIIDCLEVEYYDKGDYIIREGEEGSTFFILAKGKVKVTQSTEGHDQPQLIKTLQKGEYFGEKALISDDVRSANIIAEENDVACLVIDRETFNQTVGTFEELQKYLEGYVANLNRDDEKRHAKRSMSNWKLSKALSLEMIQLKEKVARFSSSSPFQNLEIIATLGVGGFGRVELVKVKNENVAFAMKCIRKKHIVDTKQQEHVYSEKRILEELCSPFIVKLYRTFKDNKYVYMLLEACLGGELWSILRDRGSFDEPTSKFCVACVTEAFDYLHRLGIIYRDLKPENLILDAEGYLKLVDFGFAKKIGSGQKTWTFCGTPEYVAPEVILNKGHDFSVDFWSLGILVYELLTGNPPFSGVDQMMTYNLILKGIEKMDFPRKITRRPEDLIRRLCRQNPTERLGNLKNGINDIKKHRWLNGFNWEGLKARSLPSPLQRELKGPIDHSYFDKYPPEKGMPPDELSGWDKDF

Series 1 — cell line: mouse MPNST tumor cells; method: high-content nuclear imaging; item: cell number; tested at: 10 µM; time: 12 h; notes: mean of 2 replicates; baseline: plate mean; reading: higher = more cells; measurement: nuclei count
Cc1ccc(-n2sc(=O)n(Cc3ccc(F)cc3)c2=O)cc1: 0.464 z-score
CCOc1ccc(Nc2nc(-c3c(C)nc4ccccn34)cs2)cc1: -3.08 z-score
CC1=C(CC(=O)O)c2cc(F)ccc2/C1=C\c1ccc([S+](C)[O-])cc1 (stereo not drawn): -1.71 z-score
CO[C@@]1(NC(=O)CSCC#N)C(=O)N2C(C(=O)O)=C(CSc3nnnn3C)CS[C@@H]21: -0.807 z-score

Series 2 — cell line: HaCaT; tested at: 100 µM; time: 18 h; measurement: viability
CC(C)/N=c1\cc2n(-c3ccc(Cl)cc3)c3ccccc3nc-2cc1Nc1ccc(Cl)cc1: 50.6%
N=c1ccn2c(n1)O[C@H]1[C@H](O)[C@@H](CO)O[C@H]12: 112%
CCC(=O)NCC[C@@H]1CCc2ccc3c(c21)CCO3: 110%
Nc1ccn([C@@H]2O[C@H](CO)[C@@H](O)C2(F)F)c(=O)n1: 82.5%
COCCOC(=O)C1=C(C)NC(C)=C(C(=O)OC/C=C/c2ccccc2)C1c1cccc([N+](=O)[O-])c1 (stereo not drawn): 54.3%
COc1ccc2[nH]c([S+]([O-])Cc3ncc(C)c(OC)c3C)nc2c1 (stereo not drawn): 93%

Series 3 — read-out: cell-free assay; method: competition with immobilised ligand; tested at: 0.1 µM; measurement: remaining binding
Compound: Nc1c(C(=O)NCc2ccc(C(=O)NCCCC3CCCCC3)cc2)cnn1-c1ccccc1
Ribosomal protein S6 kinase alpha-6, N-terminal kinase domain (RPS6KA6, Homo sapiens, UniProt Q9UK32): 100%
VRK2 (Homo sapiens, UniProt Q86Y07): 92%
CSNK1G2 (Homo sapiens, UniProt P78368): 94%
MINK1 (Homo sapiens, UniProt Q8N4C8): 100%

Series 4 — read-out: enzyme activity; action: inhibitor; tested at: 0.5 µM; baseline: control; measurement: remaining activity
SMILES: COc1cc2ncnc(Nc3ccc(OCc4ccccc4)cc3)c2cc1OC
MAPK14 (Homo sapiens, UniProt Q16539): 101%
MAP2K1 (Homo sapiens, UniProt Q02750): 94.7%
TXK (Homo sapiens, UniProt P42681): 99.4%
Cyclin-dependent kinase 1, with cyclin A (CDK1, Homo sapiens, UniProt P06493): 97.2%
CAMK4 (Homo sapiens, UniProt Q16566): 101%
Cyclin-dependent kinase 9, with cyclin K (CDK9, Homo sapiens, UniProt P50750): 103%
DDR2 (Homo sapiens, UniProt Q16832): 100%
DCLK2 (Homo sapiens, UniProt Q8N568): 102%
PNCK (Homo sapiens, UniProt Q6P2M8): 99%
MARK2 (Homo sapiens, UniProt Q7KZI7): 108%
GRK4 (Homo sapiens, UniProt P32298): 106%
MAPK11 (Homo sapiens, UniProt Q15759): 96.9%
PRKG2 (Homo sapiens, UniProt Q13237): 104%

For quick reference, copied from above (series 4):
DDR2 (Homo sapiens, UniProt Q16832): 100%
DCLK2 (Homo sapiens, UniProt Q8N568): 102%
